Assay results pooled from the literature.
Each line is one published result; not all experiments were run side by side. ± gives the spread as reported.

Compound | target or system | assay | system | setting | how to read | quantity | result
C[n+]1ccc(/C=N/NC(=O)c2ccc3ccc4ccc(C(=O)N/N=C/c5cc[n+](C)cc5)nc4c3n2)cc1 | 22CTA telomeric G4-DNA antiparallel | FRET melting | – | 1 µM, K10 buffer, DNA 0.2 µM, added: ds26 10 µM | – | ΔTm | 10 ± 0.3 °C
C=CC(=O)N1[C@@H](c2ccc3c(c2)OCO3)c2[nH]c3ccccc3c2C[C@H]1C(=O)N1CCN(C)CC1 | CCNE1 WT-3xFLAG:CDK2 complex | co-IP TMT proteomics, item: TK1 | HEK-293T | 20 µM, 6 h | relative to: DMSO | log2 fold change | 0.0144
O=S(=O)(N[C@H]1CCO[C@@H](C2c3ccc(F)cc3CCc3cc(F)ccc32)C1)c1ccc(OC(F)(F)F)cc1 | D341 | immunoblot | – | concentration not given, 72 h | – | cleaved caspase 9 level | increased
Nc1ncc(-c2cc(-c3cnn(CC(F)(F)F)c3)ncc2F)nc1C(=O)NC1CNCC(F)C1 (stereo not shown) | MLK1 | KINOMEscan | – | 1 µM | relative to: DMSO control | remaining binding | 89%
C[n+]1ccc(/C=N/NC(=O)c2ccc3ccc(C(=O)N/N=C/c4cc[n+](C)cc4)nc3n2)cc1 | 22CTA telomeric G4-DNA antiparallel | FRET melting | – | 1 µM, K10 buffer, DNA 0.2 µM | – | ΔTm | 6.2 ± 0.3 °C
COC1OC(C)C(O)C(OC2OC(C)C(O)C(OC3OC(C)C(O)C(OC4OC(C)C(O)C(OS(=O)(=O)O)C4OS(=O)(=O)O)C3OS(=O)(=O)O)C2OS(=O)(=O)O)C1OS(=O)(=O)O (stereo not shown) | – | – | human plasma | 128 µg/mL | – | activated partial thromboplastin time | 35.1 ± 0.8 s
c1ccc(-c2n[nH]cc2-c2ccnc3ccccc23)nc1 | ENV7 (Candida albicans) | kinase binding, MIB/MS competition | Candida albicans lysate | 10 µM | relative to: DMSO | log2 fold change | 0.04
COC1OC(C)C(OS(=O)(=O)O)C(OC2OC(C)C(OS(=O)(=O)O)C(OC3OC(C)C(OS(=O)(=O)O)C(OC4OC(C)C(OS(=O)(=O)O)C(OC5OC(C)C(OS(=O)(=O)O)C(OC6OC(C)C(OS(=O)(=O)O)C(OC7OC(C)C(OS(=O)(=O)O)C(OC8OC(C)C(OS(=O)(=O)O)C(OS(=O)(=O)O)C8O)C7O)C6O)C5O)C4O)C3O)C2O)C1O (stereo not shown) | – | – | human plasma | 128 µg/mL | – | activated partial thromboplastin time | 39 ± 1 s
O=C(N/N=C/c1cc[n+](Cc2ccccc2)c2ccccc12)C(=O)N/N=C/c1cc[n+](Cc2ccccc2)c2ccccc12 | 22CTA telomeric G4-DNA antiparallel | FRET melting | – | 1 µM, K10 buffer, DNA 0.2 µM, added: ds26 10 µM | – | ΔTm | 7.9 ± 0.5 °C
CNS(=O)(=O)Nc1nccc(Cc2c(C)c3ccc(Oc4ncccc4F)cc3oc2=O)c1F | NUGC-3 | cell viability | – | 7 days | – | IC50 | 24.3 nM
O=C(N/N=C/c1cc[n+](Cc2ccccc2)c2ccccc12)c1cccc(C(=O)N/N=C/c2cc[n+](Cc3ccccc3)c3ccccc23)c1 | 22CTA telomeric G4-DNA antiparallel | FRET melting | – | 1 µM, K10 buffer, DNA 0.2 µM | – | ΔTm | 11.2 ± 0.3 °C
O=c1c(Oc2ccccc2)c(C(F)(F)F)oc2c(O)c(O)ccc12 | ROC1-CUL1 E3 subcomplex | Cdc34-ubiquitin discharge | – | 300 µM | relative to: input | Cdc34b-ubiquitin remaining | 26%
O=C(CC(F)(F)F)Nc1ccc(C2CCCCC2)cc1 | – | liver microsome stability | rat liver microsomes | 1 µM | – | hepatic clearance | 52 mL/min/kg
CCN(CC)CC(=O)Nc1cccc(-n2cc(-c3ccc4ccc(-c5cn(-c6cccc(NC(=O)CN(CC)CC)c6)nn5)cc4c3)nn2)c1 | RCC4 | PCR angiogenesis array, item: TIE1 | – | 5 x IC50, 6 h, normoxia | relative to: untreated | fold regulation | 1.18 fold
O=C(N/N=C/c1cc[n+](CC2CC2)c2ccccc12)N/N=C/c1cc[n+](CC2CC2)c2ccccc12 | 22CTA telomeric G4-DNA antiparallel | FRET melting | – | 1 µM, K10 buffer, DNA 0.2 µM, added: ds26 10 µM | – | ΔTm | 5.6 ± 1.9 °C
COC1OC(C)C(O)C(OC2OC(C)C(O)C(OC3OC(C)C(O)C(OC4OC(C)C(O)C(OC5OC(C)C(O)C(OS(=O)(=O)O)C5OS(=O)(=O)O)C4OS(=O)(=O)O)C3OS(=O)(=O)O)C2OS(=O)(=O)O)C1OS(=O)(=O)O (stereo not shown) | – | – | human plasma | 128 µg/mL | – | activated partial thromboplastin time | 35.1 ± 0.7 s
C[n+]1ccc(/C=N/NC(=O)N/N=C/c2cc[n+](C)c3ccccc23)c2ccccc21 | 22CTA telomeric G4-DNA antiparallel | FRET melting | – | 1 µM, K10 buffer, DNA 0.2 µM, added: ds26 10 µM | – | ΔTm | 4.3 ± 2.3 °C
Cc1ncsc1-c1ccc(C(C)NC(=O)C2CC(O)CN2C(=O)C(NC(=O)CCCCCCCCCCN2CCCC(Nc3ncc(Cl)c(Nc4ccccc4S(=O)(=O)C(C)C)n3)C2)C(C)(C)C)cc1 (stereo not shown) | 22Rv1 | RNA-seq, item: TLN2 mRNA | – | concentration not given | relative to: DMSO | log2 fold change | -1.59
CN1CCCNC(=O)c2cccc(c2)C(=O)NCCCN(C)CCCNc2cccc3c2C(=O)c2cccc(c2C3=O)NCCC1 | SAS | RNA-Seq, item: CCDC39 mRNA | – | 1 µM, 6 h | relative to: untreated cells | log2 fold change | -1.86
COc1ccccc1-c1ccncc1C(=O)Nc1nnc(OCc2ccc(Cl)cc2)s1 | MDA-MB-436 BRCA1-mutant | colony formation | – | 3 µM | relative to: vehicle (DMSO) | colony survival | 43.5%
O=C(N/N=C/c1ccc2c(ccc[n+]2Cc2ccccc2)c1)c1ccc2ccc3ccc(C(=O)N/N=C/c4ccc5c(ccc[n+]5Cc5ccccc5)c4)nc3c2n1 | 22CTA telomeric G4-DNA antiparallel | FRET melting | – | 1 µM, K10 buffer, DNA 0.2 µM, added: ds26 10 µM | – | ΔTm | 20.7 ± 0.8 °C
C=CC(=O)Nc1cccc(Cn2ncc3cnc(Nc4cnn(CCOC)c4)nc32)c1 | CAMKK2 human | binding, KINOMEscan | – | 100 nM | lower = stronger binding | percent of control | 76%
O=C(c1ccc(C2CCCCC2)cc1)N1CCC(F)CC1 | – | liver microsome stability | rat liver microsomes | 1 µM | – | hepatic clearance | 52 mL/min/kg
COC1CN([C@H]2CC[C@H]([C@@]3(C)Oc4c(Cl)cc(C(=O)NCc5c(SC)cc(C)[nH]c5=O)c(C)c4O3)CC2)C1 | – | RNA-seq, item: NLRX1 mouse homolog | mouse, HT-1376 xenograft, whole blood | dose not given | relative to: vehicle | log2 fold change | 0.0975
c1ccc(CN2CCOCCOCCN(CCCCCCCCN3CCOCCOCCN(CCCCCCCCN4CCOCCOCCN(Cc5ccccc5)CCOCCOCC4)CCOCCOCC3)CCOCCOCC2)cc1 | Klebsiella pneumoniae | checkerboard | ATCC BAA-2146 | half MIC, added: tetracycline | – | FIC index | 0.53
C=C(NC(=O)c1csc(-c2nc3c(cc2O)-c2nc(cs2)C(=O)NC(C(C)O)C(=O)NC(=C(C)OC)c2nc(cs2)C(=O)NC2c4nc(cs4)C(=O)NC(COC(=O)c4c5c6c(cccc6n4O)COC(=O)C(OC4CC(C)(O)C(N(C)C)C(C)O4)C2OC5)c2nc-3cs2)n1)C(N)=O (stereo not shown) | Streptococcus pneumoniae | – | -4, immunocompromised mice, lung infection | qd dosing | – | ED50 | 4.14 mg/kg
CO[C@@H]1[C@@H](OC(N)=O)[C@@H](O)[C@H](Oc2ccc3c(O)c(NC(=O)c4ccc(O)c(CC=C(C)C)c4)c(=O)oc3c2C)OC1(C)C | DLD-1 parental | – | – | 50 µM, replicate 1 | – | colony count | 66.5
C[n+]1cccc2cc(/C=N/NC(=O)C(=O)N/N=C/c3ccc4c(ccc[n+]4C)c3)ccc21 | 22CTA telomeric G4-DNA antiparallel | FRET melting | – | 1 µM, K10 buffer, DNA 0.2 µM, added: ds26 10 µM | – | ΔTm | 2 ± 0.6 °C

For quick reference, copied from above:
Compound | target or system | assay | system | setting | how to read | quantity | result
C[n+]1ccc(/C=N/NC(=O)c2ccc3ccc(C(=O)N/N=C/c4cc[n+](C)cc4)nc3n2)cc1 | 22CTA telomeric G4-DNA antiparallel | FRET melting | – | 1 µM, K10 buffer, DNA 0.2 µM | – | ΔTm | 6.2 ± 0.3 °C
COC1OC(C)C(O)C(OC2OC(C)C(O)C(OC3OC(C)C(O)C(OC4OC(C)C(O)C(OS(=O)(=O)O)C4OS(=O)(=O)O)C3OS(=O)(=O)O)C2OS(=O)(=O)O)C1OS(=O)(=O)O (stereo not shown) | – | – | human plasma | 128 µg/mL | – | activated partial thromboplastin time | 35.1 ± 0.8 s
